Published values from different studies.
Each line is one published result; not all experiments were run side by side. Square brackets hold non-standard residues; d marks the D form. Bridges are numbered along the chain shown (N, C = ends). Where no end group is shown, it is not given here. The star is where a group is joined.
Mapk14: Mapk14, pT180, pY182 (Rattus norvegicus, UniProt P70618)
UniProt P70618, sequence (whole entry, unmodified, looked up): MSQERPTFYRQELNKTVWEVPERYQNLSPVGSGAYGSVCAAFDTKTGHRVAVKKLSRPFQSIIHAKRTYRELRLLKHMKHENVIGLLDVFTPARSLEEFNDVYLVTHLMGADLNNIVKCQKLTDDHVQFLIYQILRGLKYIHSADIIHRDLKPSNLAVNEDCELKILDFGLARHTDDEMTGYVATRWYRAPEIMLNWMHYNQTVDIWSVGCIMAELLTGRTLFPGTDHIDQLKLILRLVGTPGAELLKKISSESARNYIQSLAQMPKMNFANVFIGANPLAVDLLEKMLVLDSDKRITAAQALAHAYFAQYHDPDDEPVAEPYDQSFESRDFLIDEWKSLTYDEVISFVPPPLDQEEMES
RPLP2: RPLP2 (Homo sapiens, UniProt P05387)
UniProt P05387, sequence (whole entry, looked up): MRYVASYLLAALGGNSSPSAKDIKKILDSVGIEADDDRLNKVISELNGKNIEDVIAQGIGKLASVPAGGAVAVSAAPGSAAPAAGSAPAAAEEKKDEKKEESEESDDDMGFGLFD
B1: UGT1A9 (Homo sapiens, UniProt O60656); chain GKLLVVPMDGSHWFTMRSVVEKLILRGHEVVVVMPEVSWQLGRSLNCTVKTYSTSYTLEDLDREFKAFAHAQWKAQVRSIYSLLMGSYNDIFDLFFSNCRSLFKDKKLVEYLKESSFDAVFLDPFDNCGLIVAKYFSLPSVVFARGILCHYLEEGAQCPAPLSYVPRILLGFSDAMTFKERVRNHIMHLEEHLLCHRFFKNALEIASEILQTPVTEYDLYSHTSIWLLRTDFVLDYPKPVMPNMIFIGGINCHQGKPLPMEFEAYINASGEHGIVVFSLGSMVSEIPEKKAMAIADALGKIPQTVLWRYTGTRPSNLANNTILVKWLPQNDLLGHPMTRAFITHAGSHGVYESICNGVPMVMMPLFGDQMDNAKRMETKGAGVTLNVLEMTSEDLENALKAVINDKSYKENIMRLSSLHKDRPVEPLDLAVFWVEFVMRHKGAPHLRPAAHDLTWYQYHSLDVIGFLLAVVLTVAFITFKCCAYGYRKCLGKKGRVKKAHKSKTH
UniProt P12259, sequence (whole entry, unmodified, looked up): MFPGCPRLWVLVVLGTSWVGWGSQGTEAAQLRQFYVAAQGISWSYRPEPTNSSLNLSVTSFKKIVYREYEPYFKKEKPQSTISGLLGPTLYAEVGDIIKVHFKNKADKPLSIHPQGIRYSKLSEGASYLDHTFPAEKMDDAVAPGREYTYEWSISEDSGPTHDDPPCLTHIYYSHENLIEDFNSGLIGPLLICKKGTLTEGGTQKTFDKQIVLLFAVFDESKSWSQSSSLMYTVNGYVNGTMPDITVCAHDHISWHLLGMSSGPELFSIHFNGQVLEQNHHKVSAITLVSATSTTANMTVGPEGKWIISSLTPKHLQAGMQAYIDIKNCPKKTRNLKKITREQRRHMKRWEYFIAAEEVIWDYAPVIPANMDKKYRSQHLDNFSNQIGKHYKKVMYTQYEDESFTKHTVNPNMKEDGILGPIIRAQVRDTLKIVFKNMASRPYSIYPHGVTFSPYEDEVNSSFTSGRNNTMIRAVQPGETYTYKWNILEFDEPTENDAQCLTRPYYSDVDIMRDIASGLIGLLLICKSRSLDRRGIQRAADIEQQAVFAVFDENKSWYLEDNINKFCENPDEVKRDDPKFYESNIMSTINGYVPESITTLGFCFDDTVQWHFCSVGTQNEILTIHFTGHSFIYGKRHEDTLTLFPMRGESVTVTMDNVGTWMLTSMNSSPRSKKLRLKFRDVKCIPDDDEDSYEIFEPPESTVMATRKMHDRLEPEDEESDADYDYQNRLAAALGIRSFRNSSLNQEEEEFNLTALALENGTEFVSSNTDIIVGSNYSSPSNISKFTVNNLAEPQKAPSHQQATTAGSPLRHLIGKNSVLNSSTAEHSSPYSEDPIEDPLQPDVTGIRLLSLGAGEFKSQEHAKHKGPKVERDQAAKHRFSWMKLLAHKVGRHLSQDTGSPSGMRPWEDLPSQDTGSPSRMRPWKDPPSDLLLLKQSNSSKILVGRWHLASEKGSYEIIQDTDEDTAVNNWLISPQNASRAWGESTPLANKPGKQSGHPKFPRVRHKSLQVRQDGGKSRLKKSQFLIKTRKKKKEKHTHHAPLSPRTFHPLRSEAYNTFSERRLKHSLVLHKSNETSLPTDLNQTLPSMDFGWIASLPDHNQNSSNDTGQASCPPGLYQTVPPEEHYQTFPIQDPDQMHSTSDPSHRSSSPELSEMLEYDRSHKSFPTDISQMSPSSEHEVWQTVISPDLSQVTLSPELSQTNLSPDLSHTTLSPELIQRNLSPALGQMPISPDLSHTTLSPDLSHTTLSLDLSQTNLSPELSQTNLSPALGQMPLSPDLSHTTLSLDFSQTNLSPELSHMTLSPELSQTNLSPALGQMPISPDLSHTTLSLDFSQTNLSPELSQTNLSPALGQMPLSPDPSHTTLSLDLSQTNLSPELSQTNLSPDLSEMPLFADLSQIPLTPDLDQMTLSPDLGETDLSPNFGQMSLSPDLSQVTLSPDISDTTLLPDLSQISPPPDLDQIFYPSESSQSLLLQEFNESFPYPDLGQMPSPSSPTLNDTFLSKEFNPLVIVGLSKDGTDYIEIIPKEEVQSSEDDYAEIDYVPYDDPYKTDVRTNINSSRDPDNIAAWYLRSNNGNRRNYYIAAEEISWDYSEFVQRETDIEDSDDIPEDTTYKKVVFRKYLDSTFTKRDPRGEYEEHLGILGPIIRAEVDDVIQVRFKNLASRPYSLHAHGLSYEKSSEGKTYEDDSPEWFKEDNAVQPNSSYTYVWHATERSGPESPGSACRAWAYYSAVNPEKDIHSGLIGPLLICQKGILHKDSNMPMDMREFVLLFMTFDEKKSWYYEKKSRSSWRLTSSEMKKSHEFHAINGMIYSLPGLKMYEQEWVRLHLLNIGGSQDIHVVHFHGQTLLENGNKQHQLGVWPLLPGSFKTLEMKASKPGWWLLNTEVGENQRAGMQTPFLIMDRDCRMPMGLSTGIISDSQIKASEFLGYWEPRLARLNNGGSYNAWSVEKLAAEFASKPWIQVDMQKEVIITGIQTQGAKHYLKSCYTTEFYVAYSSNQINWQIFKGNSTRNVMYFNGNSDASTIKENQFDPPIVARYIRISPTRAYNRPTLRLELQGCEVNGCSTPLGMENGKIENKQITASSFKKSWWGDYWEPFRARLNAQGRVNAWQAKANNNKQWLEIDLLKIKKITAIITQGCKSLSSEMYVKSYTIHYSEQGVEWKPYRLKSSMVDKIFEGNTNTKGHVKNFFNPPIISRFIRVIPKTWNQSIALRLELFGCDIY
UniProt Q9H6P5, sequence (whole entry, looked up): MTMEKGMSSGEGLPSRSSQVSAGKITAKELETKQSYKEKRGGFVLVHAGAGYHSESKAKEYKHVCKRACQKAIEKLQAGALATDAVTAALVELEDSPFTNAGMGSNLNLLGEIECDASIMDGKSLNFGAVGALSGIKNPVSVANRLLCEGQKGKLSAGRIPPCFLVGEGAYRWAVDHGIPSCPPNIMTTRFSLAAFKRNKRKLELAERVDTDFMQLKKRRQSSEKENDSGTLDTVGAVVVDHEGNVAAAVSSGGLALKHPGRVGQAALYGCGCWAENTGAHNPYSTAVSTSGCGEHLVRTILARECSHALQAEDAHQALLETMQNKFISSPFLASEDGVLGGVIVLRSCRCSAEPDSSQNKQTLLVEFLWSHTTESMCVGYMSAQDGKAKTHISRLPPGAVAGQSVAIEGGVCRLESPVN
UniProt P07724, sequence (whole entry, looked up): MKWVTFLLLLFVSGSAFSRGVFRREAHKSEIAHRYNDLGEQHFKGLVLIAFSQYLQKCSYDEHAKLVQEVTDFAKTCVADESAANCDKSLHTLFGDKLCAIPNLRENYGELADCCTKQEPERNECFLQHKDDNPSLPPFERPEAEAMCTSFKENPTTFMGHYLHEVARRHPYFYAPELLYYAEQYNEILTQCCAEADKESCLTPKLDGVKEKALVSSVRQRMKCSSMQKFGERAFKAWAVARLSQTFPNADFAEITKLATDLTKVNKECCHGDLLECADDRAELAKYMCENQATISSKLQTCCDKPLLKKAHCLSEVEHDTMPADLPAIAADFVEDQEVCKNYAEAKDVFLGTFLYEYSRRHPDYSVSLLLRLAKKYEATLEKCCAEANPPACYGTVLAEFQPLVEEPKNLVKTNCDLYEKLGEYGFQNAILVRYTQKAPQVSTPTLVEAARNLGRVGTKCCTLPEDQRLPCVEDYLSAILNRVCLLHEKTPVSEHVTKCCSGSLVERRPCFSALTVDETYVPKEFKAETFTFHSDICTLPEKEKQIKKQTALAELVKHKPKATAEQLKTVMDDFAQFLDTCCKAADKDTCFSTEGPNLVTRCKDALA

| Molecule | tested on | assay | test system | conditions | endpoint | result |
| --- | --- | --- | --- | --- | --- | --- |
| RLIEDICLPRWGCLWEDDK(IRDye800CW)-NH2 (cyclic albumin-binding peptide; disulfide 7-13; Cys7-Cys13 disulfide, IRDye800CW on Lys, C-terminal amide; IRDye800CW = CC1(C)C(/C=C/C2=C(Oc3ccc(S(=O)(=O)O)cc3)C(=C/C=C3/N(CCCCS(=O)(=O)O)c4ccc(S(=O)(=O)O)cc4C3(C)C)/CCC2)=[N+](CCCCCC(=O)*)c2ccc(S(=O)(=O)[O-])cc21) | Alb (Mus musculus, UniProt P07724) | competition with ligand, competitive plate binding assay | peptide, coated plate |  | IC50 | 44.8 nM |
| YARRRKRRSLAINLTN (TTLL13P D-site peptide (Homo sapiens)) | Mapk14 | kinase activity, inhibitor, competitive kinase inhibition assay | peptide | with: ATP 1 mM | IC50 | 760 nM |
| B1 (UGT1A9) | O=c1cc(-c2ccccc2)oc2cc(O)c(O)cc12 | steady-state kinetics |  | pH 7.4, 37 °C | Vmax | 0.00409 µmol/min/mg |
| YANQLKFRKKKLKFCK (SETD1B D-site peptide (Homo sapiens)) | Mapk14 N159K/E160S/E163T, pT180, pY182 (Rattus norvegicus, UniProt P70618) | kinase activity, inhibitor, competitive kinase inhibition assay | peptide | with: ATP 1 mM | IC50 | 30000 nM |
| Ac-ISQL[Asp(vs)]-OH (KMT2A residues 2714-2718, N-acetyl, P1 Asp vinyl sulfone, free C-terminal acid; N-acetyl, P1 Asp vinyl sulfone, free C-terminal acid; Asp(vs) = vinyl sulfone at the side chain of the P1 aspartic acid) | TASP1 (Homo sapiens, UniProt Q9H6P5) | Taspase1 cleavage inhibition, inhibitor, FRET reporter assay | peptide | added simultaneously with substrate | IC50 | > 100000 nM |
| Trichosanthin fragment D176A (Trichosanthes kirilowii) | RPLP2 | in vitro translation inhibition | rabbit reticulocyte lysate |  | IC50 | 0.038 nM |
| D-helical peptide inhibitor, Boc N-terminus, all D-residues, Aib, methyl ester | PSEN1/NCSTN/APH1A/PSENEN γ-secretase complex | γ-secretase Aβ40 production, inhibitor, sandwich ELISA |  |  | IC50 | 34.8 nM |
| YASPSRRRKLSLNIPI (RASGRF1 D-site peptide (Homo sapiens)) | Mapk14 | kinase activity, inhibitor, competitive kinase inhibition assay | peptide | with: ATP 1 mM | IC50 | 2400 nM |
| TFPI (Homo sapiens, UniProt P10646-1) | F5 B-domain deleted 811-1490 R709Q/R1545Q (UniProt P12259) | prothrombinase inhibition, inhibitor |  | with: dalteparin 1 u/mL | IC50 | 29.7 nM |
| Trichosanthin fragment R174A (Trichosanthes kirilowii) | RPLP2 | in vitro translation inhibition | rabbit reticulocyte lysate |  | IC50 | 0.16 nM |
| HSPA1A (Homo sapiens, UniProt P0DMV8) | MAPT (Homo sapiens, UniProt P10636-6) | tau aggregation, ThS fluorescence, inhibitor |  | with: ARA | IC50 | 670 nM |
